Results collected from several papers.
Protocols differ between the studies behind these lines. “And” joins repeats or separate records; there may be more than shown. ± gives the spread as reported. ≈ marks a conversion by molar mass, not a printed value.

| SMILES | organism | assay | test system | setting | how to read | quantity | value |
| --- | --- | --- | --- | --- | --- | --- | --- |
| CCCN1C(=O)C(CCC)(C(=O)OCC)Oc2cc(F)ccc21 (stereo not drawn) | Arabidopsis thaliana | stem length, petri dish germination | Col-0, 1/2 MS medium | 50 µg/mL, 7 days, 22 °C, dark |  | inhibition | 74.5% |
| CCCCCCCCCCCC(=O)NCCCC[C@H](NC(=O)CCCCCCCCCCC)C(=O)N[C@@H](CCCCNC(=O)CCCCCCCCCCC)C(=O)NCC(=O)NCC(=O)NCC(=O)N[C@@H](CS)C(=O)N[C@@H](CCCNC(=N)N)C(=O)N[C@@H](CCCCN)C(=O)N1CCC[C@H]1C(=O)N[C@@H](CS)C(=O)N[C@@H](CCCNC(=N)N)C(=O)N[C@@H](CCCCN)C(=O)N1CCC[C@H]1C(N)=O | Candida albicans | broth microdilution | 58288, RPMI-1640 | 48 h, 30 °C |  | MIC | > 128 µM |
| CCOC(=O)C1(Cc2cc(F)cc(F)c2)Oc2cc(F)ccc2N(Cc2cc(F)cc(F)c2)C1=O (stereo not drawn) | Arabidopsis thaliana | root length, petri dish germination | Col-0, 1/2 MS medium | 50 µg/mL, 7 days, 22 °C, dark |  | inhibition | 21.9% |
| O=[N+]([O-])c1ccc(C2=[N+]([O-])c3ccccc3N3CCCN=C23)cc1 | Fusobacterium nucleatum |  |  |  |  | MIC90 | ≤ 0.06 µg/mL |
| CCOC(=O)C1(CC#N)Oc2cc(F)ccc2N(CC#N)C1=O (stereo not drawn) | Arabidopsis thaliana | stem length, petri dish germination | Col-0, 1/2 MS medium | 50 µg/mL, 7 days, 22 °C, dark |  | inhibition | 45.5% |
| CCc1nn(C)c2nc(-c3ccc(C(=O)O)cc3)nc(NCc3ccccc3)c12 | Cryptosporidium parvum |  | HCT-8 | 3 x EC90, 0 h | reference: DMSO control | parasite number | 93.3% and 101% and 96.8% and 109% |
| CCOC(=O)C1(Cc2ccccc2F)Oc2cc(F)ccc2N(Cc2ccccc2F)C1=O (stereo not drawn) | Arabidopsis thaliana | root length, petri dish germination | Col-0, 1/2 MS medium | 50 µg/mL, 7 days, 22 °C, dark |  | inhibition | 48% |
| CC(=O)c1c(O)c(C)c(O)c2c1OC1=CC(=O)C(=C(C)NCCCCOC3OC4OC5(C)CCC6C(C)CCC(C3C)C46OO5)C(=O)C12C (mixture of isomers) | Plasmodium berghei |  | ANKA GFP, NMRI mouse | oral, 4 x 10 mg/kg |  | mean survival time | 9.7 days |
| CCOC(=O)C1(Cc2cc(OC)cc(OC)c2)Oc2cc(F)ccc2N(Cc2cc(OC)cc(OC)c2)C1=O (stereo not drawn) | Arabidopsis thaliana | root length, petri dish germination | Col-0, 1/2 MS medium | 200 µg/mL, 7 days, 22 °C, dark |  | inhibition | 55.3% |
| O=c1n(CCNCCOS(=O)(=O)c2ccccc2)c(=O)n(S(=O)(=O)c2ccccc2)c(=O)n1S(=O)(=O)c1ccccc1 | Bacillus subtilis | broth microdilution |  |  |  | MLC | 4 ± 1 µg/mL |
| C[C@H]1[C@H](OC(=O)CCC(=O)OCc2nnn(-c3cc4ccc(O)cc4oc3=O)c2COC(=O)CCC(=O)O[C@@H]2O[C@@H]3O[C@@]4(C)CC[C@H]5[C@H](C)CC[C@@H]([C@H]2C)[C@@]35OO4)O[C@@H]2O[C@@]3(C)CC[C@H]4[C@H](C)CC[C@@H]1[C@@]24OO3 | Plasmodium berghei |  | NK65/GFP, infected mice | oral gavage, 65 µmol/kg once daily, 96 h dosing period |  | median survival | 32 days |
| c1ccc(Nc2ncnc3ccc(-c4cccc(N5CCOCC5)c4)cc23)cc1 | Plasmodium falciparum | parasite growth, SYBR Green | D6 | blood stage |  | EC50 | 3100 nM |
| CCOC(=O)C1(Cc2ccccc2)Oc2cc(F)ccc2N(Cc2ccccc2)C1=O (stereo not drawn) | Arabidopsis thaliana |  | Col-0, seed germination, dark | 50 µg/mL, 7 days, 22 °C |  | stem length inhibition | 34.6% |
| CC(C)C[C@H](NC(=O)[C@H](CC(C)C)NC(=O)[C@H](CCCCN)NC(=O)[C@H](Cc1ccccc1)NC(=O)[C@@H](NC(=O)[C@H](CCCNC(=N)N)NC(=O)[C@@H](N)CCCCN)C(C)C)C(=O)N[C@@H](CCCCN)C(=O)N[C@@H](CCCNC(=N)N)C(=O)N[C@@H](Cc1ccc(O)cc1)C(=O)N[C@@H](Cc1c[nH]c2ccccc12)C(=O)N[C@@H](CCCNC(=N)N)C(=O)N[C@@H](CCC(N)=O)C(=O)N[C@@H](CC(C)C)C(=O)N[C@@H](CCCCN)C(=O)N[C@@H](CCCCN)C(=O)N1CCC[C@H]1C(=O)N[C@H](C(=O)N[C@@H](CCCNC(=N)N)C(=O)NCCOCCOCC(=O)O)C(C)C | Pseudomonas aeruginosa and Staphylococcus aureus | confocal microscopy | mixed biofilm | 10 µM, 6 h, biofilm, pre-formed, 24 h |  | live/dead fluorescence reduction | 95.2% |
| CCCCCCCC(=O)NCCCC[C@H](NC(=O)CCCCCCC)C(=O)N[C@@H](CCCCNC(=O)CCCCCCC)C(=O)NCC(=O)NCC(=O)NCC(=O)N[C@@H](CS)C(=O)N[C@@H](CCCNC(=N)N)C(=O)N[C@@H](CCCCN)C(=O)N1CCC[C@H]1C(=O)N[C@@H](CS)C(=O)N[C@@H](CCCNC(=N)N)C(=O)N[C@@H](CCCCN)C(=O)N1CCC[C@H]1C(N)=O | Candida albicans | broth microdilution | CGMCC 2.209, RPMI-1640 | 48 h, 30 °C |  | MIC | 8 µM (≈ 14.3 µg/mL) |
| CN1CCN(c2cccc(-c3ccc4ncnc(Nc5ccc(OCc6cccc(F)c6)c(Cl)c5)c4c3)c2)CC1 | Plasmodium falciparum | parasite growth, SYBR Green | D6 | blood stage |  | EC50 | 44 nM |
| CN(C)c1nc(NCc2ccc(F)cc2F)c(/N=N/c2ccc(Cl)cc2)c(N(C)C)n1 | Plutella xylostella | leaf dipping |  | 200 mg/L, 96 h |  | mortality | 53.3 ± 5.8% |
| O=C(c1cccc(-c2ccc3ncnc(Nc4ccc(OCc5cccc(F)c5)c(Cl)c4)c3c2)c1)N1CCOCC1 | Plasmodium falciparum | parasite growth, SYBR Green fluorescence | C235 (TM91C235), drug-resistant |  |  | EC50 | 1200 nM |
| COc1ccc(C2=[N+]([O-])c3ccccc3N3CC(C)(C)CN=C23)cc1 | Fusobacterium nucleatum | microbial growth |  |  |  | MIC50 | 0.25 µg/mL (≈ 0.745 µM) |
| CN(C)c1cccc(-c2ccc3ncnc(Nc4ccc(OCc5cccc(F)c5)c(Cl)c4)c3c2)c1 | Plasmodium falciparum | parasite growth, SYBR Green fluorescence | W2, drug-resistant |  |  | EC50 | 1400 nM |

| SMILES | organism | assay | test system | setting | how to read | quantity | value |
| --- | --- | --- | --- | --- | --- | --- | --- |
| CC(C)[C@H]1NC(=O)[C@H](Cc2ccccc2)NC(=O)[C@@H](C(C)C)NC(=O)[C@@H](C)NC(=O)[C@H](C)NC(=O)[C@@H](Cc2c(-c3ccc(-c4ccc5ccccc5c4)cc3)[nH]c3ccccc23)NC(=O)[C@@H](CO)NC1=O | Candida albicans | broth dilution |  |  |  | MIC90 | > 50 µM |
| CC(=O)c1c(O)c(C)c(O)c2c1OC1=CC(=O)C(=C(C)NCCCC(=O)OC3OC4OC5(C)CCC6C(C)CCC(C3C)C46OO5)C(=O)C12C (stereo not drawn) | Plasmodium berghei |  | ANKA GFP, NMRI mouse | oral, 4 x 100 mg/kg |  | mean survival time | 29.3 days |
| C[C@H](NC(=O)[C@@H](O)c1cc(F)cc(F)c1)C(=O)N[C@@H]1C(=O)N(C)c2ccccc2-c2ccccc21 | dengue virus 2 | viral infection, luciferase reporter virus |  | 10 nM, 48 h |  | inhibition | 94.9% |
| Fc1cccc(COc2ccc(Nc3ncnc4ccc(-c5cccc(CN6CCCCC6)c5)cc34)cc2Cl)c1 | Plasmodium falciparum | parasite growth, SYBR Green | D6 | blood stage |  | EC50 | 39 nM |
| CC[C@H](C)CCCCC(=O)N[C@@H](CCN)C(=O)N[C@H](C(=O)N[C@@H](CCN)C(=O)N[C@H]1CCNC(=O)[C@H]([C@@H](C)O)NC(=O)[C@H](CCN)NC(=O)[C@H](CCN)NC(=O)[C@H](CC(C)C)NC(=O)[C@@H](CC(C)C)NC(=O)[C@H](CCN)NC1=O)[C@@H](C)O | Escherichia coli | daily serial passaging | ATCC 8739 | highest sub-MIC, 36 days | reference: initial MIC | MIC fold change | 0.789 |
| O=S(=O)(c1ccc(-c2ccc3ncnc(Nc4ccc(OCc5cccc(F)c5)c(Cl)c4)c3c2)cc1)N1CCNCC1 | Plasmodium falciparum | parasite growth, SYBR Green | D6 | blood stage |  | EC50 | 94 nM |
| CCOC(=O)C1(Cc2ccc(OC)cc2)Oc2cc(F)ccc2N(Cc2ccc(OC)cc2)C1=O (stereo not drawn) | Arabidopsis thaliana | root length, petri dish germination | Col-0, 1/2 MS medium | 50 µg/mL, 7 days, 22 °C, dark |  | inhibition | 17.1% |
| Nc1ccc(N=Nc2ccccc2)c2ccccc12 | HIV-1 subtype C | viral replication |  | 96 h |  | IC50 | 96400 nM |
| CN(C(=O)c1ccn2ncc(-c3ccc(C(N)=O)cc3)c2c1)c1ccc(C#N)cn1 | Cryptosporidium parvum |  | UGA1 Nluc, IFN-gamma knockout C57BL/6 mice, faeces | oral, 10 mg/kg daily, 168 h post infection, treatment days 11-17 | higher means more parasites | faecal Nluc luminescence | 22200 a.u. and 21300 a.u. and 61900 a.u. and 12400 a.u. and 4220 a.u. |
| CCCCCC(=O)NCCCC[C@H](NC(=O)CCCCC)C(=O)N[C@@H](CCCCNC(=O)CCCCC)C(=O)NCC(=O)NCC(=O)NCC(=O)N[C@@H](CS)C(=O)N[C@@H](CCCNC(=N)N)C(=O)N[C@@H](CCCCN)C(=O)N1CCC[C@H]1C(=O)N[C@@H](CS)C(=O)N[C@@H](CCCNC(=N)N)C(=O)N[C@@H](CCCCN)C(=O)N1CCC[C@H]1C(N)=O | Candida albicans | broth microdilution | 14936, RPMI-1640 | 48 h, 30 °C |  | MIC | 8 µM (≈ 13.7 µg/mL) |
| CSCC[C@H]1NC(=O)[C@H](Cc2ccccc2)NC(=O)[C@H](NC(=O)[C@@H](N)CCCCN)CSC(=O)[C@H](C(C)C)NC(=O)[C@H](Cc2ccccc2)NC1=O | Listeria monocytogenes | crystal violet | EGD-e | 100 µM, 24 h, room temperature | reference: vehicle | biofilm formation reduction | 90% |
| CCOC(=O)C1(Cc2ccc(C(F)(F)F)cc2)Oc2cc(F)ccc2N(Cc2ccc(C(F)(F)F)cc2)C1=O (stereo not drawn) | Arabidopsis thaliana | stem length, petri dish germination | Col-0, 1/2 MS medium | 50 µg/mL, 7 days, 22 °C, dark |  | inhibition | 22.1% |
| CN(C)c1nc(NCc2ccc(-c3ccccc3)cc2)c(/N=N/c2ccc(Cl)cc2)c(N(C)C)n1 | Plutella xylostella | leaf dipping |  | 200 mg/L, 96 h |  | mortality | 63.3 ± 5.8% |
| O=C(c1cccc(-c2ccc3ncnc(Nc4ccc(OCc5cccc(F)c5)c(Cl)c4)c3c2)c1)N1CCCC1 | Plasmodium falciparum | parasite growth, SYBR Green fluorescence | W2, drug-resistant |  |  | EC50 | 88 nM |
| Cc1cc(C(=O)Nc2nc3cccc(C)c3n2[C@H]2CCCCN(C(=O)/C=C/CN(C)C)C2)ccn1 | Trypanosoma brucei | cell growth, Alamar Blue | 2T1 overexpressing Tb927.11.1180 |  | reference: parental 2T1 | EC50 fold shift | 0.75 fold and 1.17 fold |
| FC(F)(F)c1cccc(CNc2nc(NC3CCN(Cc4ccccc4)CC3)c3nc[nH]c3n2)c1 | Cryptococcus neoformans | mRNA level, RNA-seq, measured: CNAG_02375 |  | 48 µg/mL, 3 h | reference: untreated | fold change | 1.4 |
| CCN(CC)CCO.O=C(O)C(Cl)Cl | Xanthium sibiricum |  |  | 15 mg/mL, 21 days, pre-emergence, greenhouse |  | herbicidal inhibition | 0% |
| O=S(=O)(c1ccc(-c2ccc3ncnc(Nc4ccc(OCc5cccc(Cl)c5)c(Cl)c4)c3c2)cc1)N1CCOCC1 | Plasmodium falciparum | parasite growth, SYBR Green | D6 | blood stage |  | EC50 | 230 nM |
| Cc1ccc(N2CC3CC(C2)N3C)cc1C(=O)NC1(c2ccc3c4c(cccc24)C(=O)N3C)CC1 | Betacoronavirus 1 | viral replication | Huh-7, OC43 | 0.1875 µM |  | inhibition | 0% |

Excerpt of the above:
| SMILES | organism | assay | test system | setting | how to read | quantity | value |
| --- | --- | --- | --- | --- | --- | --- | --- |
| CCOC(=O)C1(CC#N)Oc2cc(F)ccc2N(CC#N)C1=O (stereo not drawn) | Arabidopsis thaliana | stem length, petri dish germination | Col-0, 1/2 MS medium | 50 µg/mL, 7 days, 22 °C, dark |  | inhibition | 45.5% |
| CCc1nn(C)c2nc(-c3ccc(C(=O)O)cc3)nc(NCc3ccccc3)c12 | Cryptosporidium parvum |  | HCT-8 | 3 x EC90, 0 h | reference: DMSO control | parasite number | 93.3% and 101% and 96.8% and 109% |
| CCOC(=O)C1(Cc2ccccc2F)Oc2cc(F)ccc2N(Cc2ccccc2F)C1=O (stereo not drawn) | Arabidopsis thaliana | root length, petri dish germination | Col-0, 1/2 MS medium | 50 µg/mL, 7 days, 22 °C, dark |  | inhibition | 48% |
| CC(=O)c1c(O)c(C)c(O)c2c1OC1=CC(=O)C(=C(C)NCCCCOC3OC4OC5(C)CCC6C(C)CCC(C3C)C46OO5)C(=O)C12C (mixture of isomers) | Plasmodium berghei |  | ANKA GFP, NMRI mouse | oral, 4 x 10 mg/kg |  | mean survival time | 9.7 days |
| CCOC(=O)C1(Cc2cc(OC)cc(OC)c2)Oc2cc(F)ccc2N(Cc2cc(OC)cc(OC)c2)C1=O (stereo not drawn) | Arabidopsis thaliana | root length, petri dish germination | Col-0, 1/2 MS medium | 200 µg/mL, 7 days, 22 °C, dark |  | inhibition | 55.3% |
